Results from different studies.
Each numbered part is a random draw from the data of one study; scales do not carry over between parts. Positions count from the first letter of the parent shown.

Sample 1
Target: Interferon regulatory factor 7, full length, phosphomimetic (IRF7, Homo sapiens, UniProt Q92985, residues 1-503, S101K/S471D/S472D/S475D/S476D/S477D/S483D/S484D/S487D)
Sequence of UniProt Q92985 (whole entry, unmodified, looked up): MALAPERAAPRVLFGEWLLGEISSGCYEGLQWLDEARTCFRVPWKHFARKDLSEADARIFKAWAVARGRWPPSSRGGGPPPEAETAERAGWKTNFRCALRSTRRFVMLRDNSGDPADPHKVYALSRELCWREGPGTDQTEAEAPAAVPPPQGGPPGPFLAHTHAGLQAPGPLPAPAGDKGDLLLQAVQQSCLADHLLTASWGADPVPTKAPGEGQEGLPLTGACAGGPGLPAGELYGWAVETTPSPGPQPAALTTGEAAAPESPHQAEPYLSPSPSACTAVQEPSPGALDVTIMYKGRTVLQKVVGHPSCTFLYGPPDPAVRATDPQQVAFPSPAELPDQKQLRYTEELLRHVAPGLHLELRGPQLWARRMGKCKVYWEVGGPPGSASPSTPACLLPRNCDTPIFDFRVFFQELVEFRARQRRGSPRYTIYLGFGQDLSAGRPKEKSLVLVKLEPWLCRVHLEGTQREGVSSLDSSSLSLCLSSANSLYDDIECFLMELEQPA
Method: protein-binding microarray
Molecule type: double-stranded DNA, one strand shown
Matrix: in vitro
Concentration: 250 nM
Notes: 60-bp whole probe
Added: salmon DNA 0.4 mg/ml
Relative to: random background probes
Reading: higher = stronger binding
Constant ends, left off below: GCCTAGCAC … GTCTTGATTCGCTTGACGCTGCTG
| Sequence | log fluorescence |
| --- | --- |
| CTAGGTATCCTTTTCCTTTAGTGCTAG | 2.2 z-score |
| TTAGATATCAGACTGGGTTAGTGCTAG | -0.189 z-score |
| GACGAGCTCAGTTTCGAGACGTGCTAG | 3.72 z-score |
| TTAGGTTTCGGTTTCGGTGAGTGCTAG | 14.1 z-score |
| TCATGATTGAATCTCCCACTGTGCTAG | 0.128 z-score |
| TTAGGTCTCGGACTGGGTTCGTGCTAG | 0.427 z-score |
| TTAAGTTTCGGTATCGGTTAGTGCTAG | 11.2 z-score |
| TTAGATATCGGGTATCTATTAGTGCTA | 0.164 z-score |
| TTAGGTCCCCTTTTCCTTTAGTGCTAG | 2.46 z-score |
| GACGATTTCAGTTTTGAGACGTGCTAG | 0.758 z-score |
| AGTGGAGTTCATTGTCATTTGTGCTAG | 0.233 z-score |
| CACGGTCTCGGTCTCGGGACGTGCTAG | 1.1 z-score |
| TTGGCTTCCTCTTTCTCTGCGTGCTAG | 0.282 z-score |
| TTAGATATCGGGTATCGATGAGTGCTA | 0.0367 z-score |
| TCAGGCTTCATGTTGCTCACTGTGCTA | -0.511 z-score |
| GACGGTTTCGGTATCGGGCCGTGCTAG | 9.64 z-score |
| CTTTGCTCATTTTTCAGGGAGTGCTAG | 0.504 z-score |
| TTAGTTCTCAGTCTCGATTAGTGCTAG | 2.26 z-score |
| GACGGTATCGGGATTCGGGACGTGCTA | 0.833 z-score |
| TTAGATTTCAGACAGGATTAGTGCTAG | 0.0488 z-score |
| TTTGGTTCCGGTTTCGGTTAGTGCTAG | 11.6 z-score |
| TCATGTTTCTCAAATGTTACTGTGCTA | 1.3 z-score |
| TTAGTTTTCCTACTGCTTTAGTGCTAG | 1.43 z-score |
| TCACCTTCCTCTTTTACACTGTGCTAG | 1.2 z-score |
| ATCTTTTTCCTAATTGAACCGTGCTAG | 2.59 z-score |

Sample 2
Target: JUN, bZIP domain (human)
Method: DHFR protein complementation
Matrix: yeast
Notes: single substitutions, most at no-binding floor
Relative to: wild-type JUN-FOS pair
Reading: higher = stronger binding
Parent: JUN, bZIP domain (human); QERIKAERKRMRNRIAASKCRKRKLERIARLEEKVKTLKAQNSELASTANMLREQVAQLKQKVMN; partner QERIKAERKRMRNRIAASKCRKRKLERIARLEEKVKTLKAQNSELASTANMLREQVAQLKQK
| Change | binding fitness [natural log] |
| --- | --- |
| A46H | -0.259 |
| R53T | -0.691 |
| A29F | -0.437 |
| A40H | -0.299 |
| I28Q | -0.654 |
| A46N | -0.235 |
| E44L | -0.369 |
| N42A | -0.838 |
| R30C | -0.297 |
| M51V | -0.28 |
| K39F | -0.864 |
| K36A | -0.128 |
| A49F | -0.211 |
| K39I | -0.233 |
| A49S | -0.587 |
| E32G | -1.09 |
| E44W | -0.876 |
| K39L | -0.11 |
| L52S | -1.17 |
| S47E | -0.0164 |
| E54Q | -0.575 |
| L45V | -1.19 |

Sample 3
Target: Sal-like protein 4, full length isoform A (SALL4, Homo sapiens, UniProt Q9UJQ4, residues 1-1053)
Sequence of UniProt Q9UJQ4 (whole entry, looked up): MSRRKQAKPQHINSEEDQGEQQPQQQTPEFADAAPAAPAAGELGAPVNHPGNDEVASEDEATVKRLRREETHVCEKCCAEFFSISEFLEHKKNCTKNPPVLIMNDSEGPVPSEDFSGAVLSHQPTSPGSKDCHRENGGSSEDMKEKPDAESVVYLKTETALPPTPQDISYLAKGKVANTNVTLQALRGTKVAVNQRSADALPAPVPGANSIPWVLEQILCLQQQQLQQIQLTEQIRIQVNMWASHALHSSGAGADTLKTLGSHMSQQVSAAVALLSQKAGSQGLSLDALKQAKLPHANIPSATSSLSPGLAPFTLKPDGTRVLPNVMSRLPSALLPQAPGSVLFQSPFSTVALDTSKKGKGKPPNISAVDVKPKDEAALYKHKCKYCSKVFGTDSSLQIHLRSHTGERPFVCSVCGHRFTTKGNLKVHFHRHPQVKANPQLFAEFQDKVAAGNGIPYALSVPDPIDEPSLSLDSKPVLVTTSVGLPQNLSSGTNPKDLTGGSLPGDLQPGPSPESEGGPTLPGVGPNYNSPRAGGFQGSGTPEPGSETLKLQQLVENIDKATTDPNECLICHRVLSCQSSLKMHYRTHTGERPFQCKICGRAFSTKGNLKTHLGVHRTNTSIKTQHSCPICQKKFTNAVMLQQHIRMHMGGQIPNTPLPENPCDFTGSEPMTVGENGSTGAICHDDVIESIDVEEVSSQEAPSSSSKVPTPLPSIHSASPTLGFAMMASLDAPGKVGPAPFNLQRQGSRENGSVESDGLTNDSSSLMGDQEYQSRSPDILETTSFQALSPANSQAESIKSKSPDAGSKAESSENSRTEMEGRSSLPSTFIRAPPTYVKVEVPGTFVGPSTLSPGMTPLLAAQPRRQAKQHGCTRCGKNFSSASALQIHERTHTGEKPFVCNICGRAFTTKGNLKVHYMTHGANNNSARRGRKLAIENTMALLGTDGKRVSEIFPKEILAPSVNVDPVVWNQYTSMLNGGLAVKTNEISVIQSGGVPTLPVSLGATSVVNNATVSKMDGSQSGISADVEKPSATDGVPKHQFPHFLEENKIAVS
Method: universal PBM
Molecule type: double-stranded DNA, one strand shown
Matrix: in vitro
Concentration: 600 nM
Notes: 8-mer, flanks averaged, mean of replicates
Reading: higher = stronger binding
| Sequence | E-score |
| --- | --- |
| ATTGGTTG | 0.109 |
| ATGAATCG | 0.032 |
| ACAAATAC | 0.208 |
| CACGCTCC | -0.308 |
| TCTATGAA | 0.23 |
| GGACCCAC | -0.265 |
| ATTCGCTG | -0.0271 |
| AGTTAGAC | 0.0868 |
| ATGAGCTG | -0.0157 |
| CTTGGCGC | -0.152 |
| CCTCCTGC | -0.133 |
| CAGCCGCG | -0.251 |
| GCGATGAC | -0.101 |
| ACGTCTAC | 0.0292 |
| AGTCAAGA | -0.0301 |
| ACGTAACC | -0.0346 |
| GGTCTCCA | -0.139 |

Sample 4
Target: CCND2, cyclin fold, Cln2 fusion (human)
Method: yeast growth competition, sequencing
Matrix: yeast
Notes: weak parent motif
Relative to: not given
Reading: higher = stronger binding
Parent: RRM2 docking peptide (human); SKTARRIFQEPTE; partner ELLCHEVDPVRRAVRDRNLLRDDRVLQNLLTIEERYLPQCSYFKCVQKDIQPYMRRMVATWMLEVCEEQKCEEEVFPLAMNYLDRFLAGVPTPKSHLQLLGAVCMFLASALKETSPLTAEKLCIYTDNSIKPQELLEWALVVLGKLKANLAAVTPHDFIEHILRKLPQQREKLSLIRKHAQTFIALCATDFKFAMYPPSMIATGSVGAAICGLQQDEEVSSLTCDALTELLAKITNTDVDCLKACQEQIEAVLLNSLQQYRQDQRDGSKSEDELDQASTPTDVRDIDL
| Change | normalised enrichment score |
| --- | --- |
| AKTARRIFQEPTE [S1A] | 0.168 |
| SKTARAIFQEPTE [R6A] | -0.0651 |
| SKTARRIAQEPTE [F8A] | 0.404 |
| SKTARRIFAEPTE [Q9A] | 0.353 |
| SKTARRIFQEATE [P11A] | -0.301 |
| SATARRIFQEPTE [K2A] | 0.388 |

Sample 5
Target: CEP164, C-terminal peptide (human)
Method: DHFR complementation, deep sequencing
Matrix: yeast
Notes: single substitutions, model-inferred values
Relative to: wild type
Reading: higher = weaker binding
Parent: PDZK1, PDZ domain 2 (human); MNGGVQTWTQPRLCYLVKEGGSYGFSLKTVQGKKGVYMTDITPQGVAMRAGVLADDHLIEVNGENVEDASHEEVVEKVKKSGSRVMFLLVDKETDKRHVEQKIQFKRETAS; partner HNRVKVYRF
| Change | binding free energy change |
| --- | --- |
| K79H | 0.388 kcal/mol |
| S22Q | 0.239 kcal/mol |
| A50P | 1.58 kcal/mol |
| V66N | 0.933 kcal/mol |
| L53H | 0.0661 kcal/mol |
| V75N | 2.62 kcal/mol |
| E108N | 0.738 kcal/mol |
| L88Y | -0.0858 kcal/mol |
| A50W | 0.669 kcal/mol |
| Y15S | 0.0051 kcal/mol |
| G32Y | 0.198 kcal/mol |
| T39M | 1.3 kcal/mol |
| S22G | 0.124 kcal/mol |
| Q44C | 0.0855 kcal/mol |
| N62V | 1.71 kcal/mol |
| P11Y | 0.378 kcal/mol |
| G45V | 0.824 kcal/mol |
| M38G | 1.58 kcal/mol |
| G82D | 0.73 kcal/mol |
| D91M | 0.141 kcal/mol |

Sample 6
Target: RNA binding protein fox-1 homolog 2, RRM domain, GST-SBP tag (RBFOX2, Homo sapiens, UniProt O43251-10, residues 100-194)
Method: RNA Bind-n-Seq
Molecule type: RNA
Matrix: in vitro
Concentration: 365 nM
Notes: natural RNA segment, single round, ends assumed
Relative to: no-protein control
Reading: higher = stronger binding
Constant ends, left off below: GGGAGUUCUACAGUCCGACGAUC … UGGAAUUCUCGGGUGCCAA
Residues (chain): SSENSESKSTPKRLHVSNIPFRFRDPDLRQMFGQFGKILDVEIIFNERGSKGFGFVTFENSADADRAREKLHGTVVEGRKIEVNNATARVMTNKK
| Sequence | RBNS enrichment (R) |
| --- | --- |
| UGUGGGCUGAAGUUUAGGGGACUGCAGACACAUCUGGGCCCAGUCCUCAGCUGUUCCUUGCUGGUAUACCUCAGAAGUGGAAUGUCAGAGUGGGCUACUAGAGACCUCUG | 0.268 |
| GCAUCUGCUUACCUCAUGGCGCUGUUUGUUUCAGAUUUUGAAAGCUCACAGGUGUUUGUUGGAAUCAUUUGCCGAGUCAUUUCCUCAAAUCAUAUUCCAUUGUGUCAGUU | 0.566 |
| UACUAAAAAUACAAAAUUAGCCAGAUGUGGUGGCGCACACCUGUAAUCCCAGCUACUCAGGAAGCUGAGGCAGGAAAAUCGCUUGAACCUGGGAGGUGGAAGUUGCAGUG | 0.461 |
| UUGUAAAUGCUAAUUUUUUAGGACUCUACUAGUUGGCAUACGAAAAUAUAUAAGGAUGGACAUUUUAUCGUCUCAUAGUCAUGCUUUUUGGAAAUUUACAUCAUCCUCAA | 0.566 |
| GCUUAUUUUAAUGUGAUUUUUCUAAAACUAUUGAAAAAUUAAUAUUUCUAUAAUCUAUUAAAAAAAAUGGAGAAUGUUUUCUCUCAAAUUUCCUCUGACCCAUGGGAAUG | 0.515 |
| UCUGCUGGGGUUUGUGUAAGCUGUGAUUCUUUCCCUUCCUAAUAGGUUGAGCUUGACAUGGAAAGGAGCAGUUGGCAGGGAAGGAACUUAUUCCCCAAGAGUGGUAACUA | 2.55 |
| UGGCCACCCCUCCCCAGUACAGGGGUGCUGCAGGUGGCAGAGUGAAUGUCCCCCAUCAUGUGGCCCAACUCUCCUGGCCUGGCCAUCUCCCUCCCCAGAAACAGUGUGCA | 11.3 |
| ACUUCAGAGUCUUUCAUGCCAGCGUUUGAGCUCCUCUGGGUAAAAUCUUCCCUUUGUUGACUGGCCUUCACAGCCAUGGCUGGUGACAACAGAGGAUCGUUGAGAUUGAG | 0.392 |
| GCAUGUAGUCACUUUAUAAGUCAUUGUAUGUUAUUAUAUUCCGUAGGUAGAUGUGUAACCUCUUCACCUUAUUCAUGGCUGAAGUCACCUCUUGGUUACAGUAGCGUAGC | 1.34 |
| AAGGUGGCGGUUUGUGCUUGCAGGGCAGCACUGCCCACCACCUGCCAGGGAGGAGCCUGAGCAGCUUCCAUAGCAGAUCCGUUGCCAGUUACCUGGCCUGUAAGCUUCUU | 0.293 |
| CCUAUCAUCUUGUUAACACUAGAUUCUUCUGAGAUUCAAAAAGAAAAAUCACUGUCAGAGCUAGCCUUGCCUAGUGAGUCUGUGUCCACAGGCUGUAACAGGGUGGAAGA | 0.567 |
| CUGCGGCCUCCGGAGCGCUUUCUCUGAAGCGACUGCACGUUCCUGCUGCUCUCCGAUCUCAUCAGACAGUAGAAUGUAGGGAAAAGCUUUUGCCCGAUGGAUUUUGAAAA | 0.981 |

Repeated from above (sample 1):
| Sequence | log fluorescence |
| --- | --- |
| TTAGATATCGGGTATCTATTAGTGCTA | 0.164 z-score |
| TCATGATTGAATCTCCCACTGTGCTAG | 0.128 z-score |
| TTAGATATCGGGTATCGATGAGTGCTA | 0.0367 z-score |
| AGTGGAGTTCATTGTCATTTGTGCTAG | 0.233 z-score |
| GACGGTTTCGGTATCGGGCCGTGCTAG | 9.64 z-score |
| TCAGGCTTCATGTTGCTCACTGTGCTA | -0.511 z-score |
| TTAGATATCAGACTGGGTTAGTGCTAG | -0.189 z-score |
| GACGGTATCGGGATTCGGGACGTGCTA | 0.833 z-score |
| CTTTGCTCATTTTTCAGGGAGTGCTAG | 0.504 z-score |
| TCATGTTTCTCAAATGTTACTGTGCTA | 1.3 z-score |
| GACGAGCTCAGTTTCGAGACGTGCTAG | 3.72 z-score |
| TTAGGTCTCGGACTGGGTTCGTGCTAG | 0.427 z-score |
| CTAGGTATCCTTTTCCTTTAGTGCTAG | 2.2 z-score |
| TTGGCTTCCTCTTTCTCTGCGTGCTAG | 0.282 z-score |
| TTAAGTTTCGGTATCGGTTAGTGCTAG | 11.2 z-score |
| TTAGGTTTCGGTTTCGGTGAGTGCTAG | 14.1 z-score |
